{"data": "Published values from different studies", "note": "Lines come from different studies, so protocols differ. ± marks the error that the study gave."}
{"Compound": "CC(C)C[C@H](NC(=O)[C@H](Cc1ccc(O)cc1)NC(=O)[C@@H](CCCNC(=N)N)NC(=O)[C@@H](CO)NC(=O)[C@H](Cc1ccccc1)NC(=O)[C@H](CC1CCCCC1)NC(=O)[C@H](CC(=O)O)NC(=O)CN1CCN(CC(=O)O)CCN(CC(=O)O)CCN(CC(=O)O)CC1)C(=O)N[C@@H](Cc1c[nH]c2ccccc12)C(=O)N[C@@H](CO)C(=O)O [copper-64 labelled]", "test system": "human", "setting": "200 MBq", "quantity": "effective dose", "value": "5.5 mSv"}
{"Compound": "CCCC[C@H](NC(=O)CCCCCCCNC(=O)CN1CCN(CC(=O)O)CCN(CC(=O)O)CC1)C(=O)N[C@H]1CC(=O)NCCCC[C@@H](C(N)=O)NC(=O)[C@H](Cc2c[nH]c3ccccc23)NC(=O)[C@H](CCCNC(=N)N)NC(=O)[C@@H](Cc2ccccc2)NC(=O)[C@H](Cc2c[nH]cn2)NC1=O [copper-64 labelled]", "test system": "C57 mice, bone", "setting": "intravenous, 0.37 MBq, 2 h", "quantity": "tissue uptake", "value": "0.13 ± 0.13 %ID/g"}
{"Compound": "N=C(N)NCCC[C@@H]1NC(=O)[C@H](CCCCNC(=O)CC[C@H](NC(=O)CC[C@H](NC(=O)CN2CCN(CC(=O)O)CCN(CC(=O)O)CCN(CC(=O)O)CC2)C(=O)N[C@@H](CCC(=O)NCCCC[C@@H]2NC(=O)[C@@H](Cc3ccccc3)NC(=O)[C@H](CC(=O)O)NC(=O)CNC(=O)[C@H](CCCNC(=N)N)NC2=O)C(=O)NCCCC[C@@H]2NC(=O)[C@@H](Cc3ccccc3)NC(=O)[C@H](CC(=O)O)NC(=O)CNC(=O)[C@H](CCCNC(=N)N)NC2=O)C(=O)NCCCC[C@@H]2NC(=O)[C@@H](Cc3ccccc3)NC(=O)[C@H](CC(=O)O)NC(=O)CNC(=O)[C@H](CCCNC(=N)N)NC2=O)NC(=O)[C@@H](Cc2ccccc2)NC(=O)[C@H](CC(=O)O)NC(=O)CNC1=O [indium-111 labelled]", "test system": "female athymic nu/nu mice, bone", "setting": "intravenous, 4 h", "quantity": "tissue uptake", "value": "0.86 ± 0.2 %ID/g"}
{"Compound": "CCCC[C@H](NC(=O)CNC(=O)CNC(=O)CN1CCN(CC(=O)O)CCN(CC(=O)O)CC1)C(=O)N[C@H]1CC(=O)NCCCC[C@@H](C(N)=O)NC(=O)[C@H](Cc2c[nH]c3ccccc23)NC(=O)[C@H](CCCNC(=N)N)NC(=O)[C@@H](Cc2ccccc2)NC(=O)[C@H](Cc2c[nH]cn2)NC1=O [technetium-99m labelled]", "test system": "C57 mouse, muscle", "setting": "iv, 0.037 MBq, 24 h", "quantity": "tissue uptake", "value": "0.03 ± 0.04 %ID/g"}
{"Compound": "CC(C)C[C@H](NC(=O)[C@H](Cc1ccc(O)cc1)NC(=O)[C@@H](CCCNC(=N)N)NC(=O)[C@@H](CO)NC(=O)[C@H](Cc1ccccc1)NC(=O)[C@H](CC1CCCCC1)NC(=O)[C@H](CC(=O)O)NC(=O)CN1CCCN2CCN(CCCN(CC(=O)O)CC2)CC1)C(=O)N[C@@H](Cc1c[nH]c2ccccc12)C(=O)N[C@@H](CO)C(=O)O [copper-64 labelled]", "test system": "female NMRI nude mice, muscle", "setting": "22 h p.i.", "quantity": "tissue uptake", "value": "0.2 ± 0.1 %ID/g"}
{"Compound": "N=C(N)NCCC[C@@H]1NC(=O)[C@H](CCCCNC(=O)CNC(=O)CNC(=O)CNC(=O)CC[C@H](NC(=O)CNC(=O)CNC(=O)CNC(=O)CC[C@H](NC(=O)CN2CCN(CC(=O)O)CCN(CC(=O)O)CCN(CC(=O)O)CC2)C(=O)NCC(=O)NCC(=O)NCC(=O)N[C@@H](CCC(=O)NCC(=O)NCC(=O)NCC(=O)NCCCC[C@@H]2NC(=O)[C@@H](Cc3ccccc3)NC(=O)[C@H](CC(=O)O)NC(=O)CNC(=O)[C@H](CCCNC(=N)N)NC2=O)C(=O)NCC(=O)NCC(=O)NCC(=O)NCCCC[C@@H]2NC(=O)[C@@H](Cc3ccccc3)NC(=O)[C@H](CC(=O)O)NC(=O)CNC(=O)[C@H](CCCNC(=N)N)NC2=O)C(=O)NCC(=O)NCC(=O)NCC(=O)NCCCC[C@@H]2NC(=O)[C@@H](Cc3ccccc3)NC(=O)[C@H](CC(=O)O)NC(=O)CNC(=O)[C@H](CCCNC(=N)N)NC2=O)NC(=O)[C@@H](Cc2ccccc2)NC(=O)[C@H](CC(=O)O)NC(=O)CNC1=O [indium-111 labelled]", "test system": "female athymic nu/nu mice, U87MG tumour", "setting": "intravenous, 111 kBq, 0.5 h", "quantity": "tissue uptake", "value": "12.7 ± 1.25 %ID/g"}
{"Compound": "CCCC[C@H](NC(=O)CNC(=O)CNC(=O)CN1CCN(CC(=O)O)CCN(CC(=O)O)CCN(CC(=O)O)CC1)C(=O)N[C@H]1CC(=O)NCCCC[C@@H](C(N)=O)NC(=O)[C@H](Cc2c[nH]c3ccccc23)NC(=O)[C@H](CCCNC(=N)N)NC(=O)[C@@H](Cc2ccccc2)NC(=O)[C@H](Cc2c[nH]cn2)NC1=O [lutetium-177 labelled]", "test system": "C57 mouse, female, spleen", "setting": "intravenous, 0.037 MBq, 0.5 h", "quantity": "tissue uptake", "value": "1.21 ± 0.19 %ID/g"}
{"Compound": "CCCCCCCC/C=C\\CCCCCCCC(=O)OC[C@H](NC(=O)[C@H](Cc1c[nH]c2ccccc12)NC(=O)[C@H](Cc1c[nH]cn1)NC(=O)[C@@H]1CCC(=O)N1)C(=O)N[C@@H](Cc1ccc(O)cc1)C(=O)N[C@H](CC(C)C)C(=O)N[C@@H](CC(C)C)C(=O)N[C@@H](CCCNC(=N)N)C(=O)N1CCC[C@H]1C(=O)NCC", "test system": "deionized water", "quantity": "critical aggregation concentration", "value": "12.2 µg/mL"}
{"Compound": "COc1ccc2cc([C@H](C)C(=O)N[C@H](Cc3ccccc3)C(=O)N[C@H](Cc3ccccc3)C(=O)N[C@H](CCCCN)C(=O)N[C@H](Cc3ccc(O)cc3)C(=O)O)ccc2c1", "assay": "oscillatory rheology", "test system": "hydrogel 0.8 wt%", "quantity": "critical strain", "value": "5.5%"}
{"Compound": "Cc1cc(-c2ccc(NC(=O)[C@H](CCCCNC(=O)CCOCCOCCC(=O)N[C@H](Cc3ccccc3)C(=O)N[C@H]3CSSC[C@@H](C(=O)N[C@H](C(=O)O)[C@@H](C)O)NC(=O)[C@H]([C@@H](C)O)NC(=O)[C@H](CCCCN)NC(=O)[C@@H](Cc4c[nH]c5ccccc45)NC(=O)[C@H](Cc4ccc(O)cc4)NC3=O)NC(=O)CN3CCN(CC(=O)O)CCN(CC(=O)O)CCN(CC(=O)O)CC3)c(C)c2)ccc1N=Nc1ccc2c(S(=O)(=O)O)cc(S(=O)(=O)O)c(N)c2c1O [lutetium-177 labelled]", "test system": "metastatic NET patients, liver metastases", "quantity": "absorbed dose", "value": "3.33 ± 0.78 Gy/GBq"}
{"Compound": "CC[C@H](C)[C@H](NC(=O)[C@H](CCN)NC(=O)[C@H](Cc1ccccc1)NC(=O)[C@H](Cc1ccccc1)NC(=O)CCCCCOC(=O)c1cn(C2CC2)c2cc(N3CCNCC3)c(F)cc2c1=O)C(=O)N[C@@H](CCN)C(=O)N[C@H](Cc1ccccc1)C(=O)N[C@@H](CC(C)C)C(=O)N[C@@H](CCN)C(=O)N[C@@H](C(=O)N[C@@H](CC(C)C)C(=O)N[C@@H](CO)C(N)=O)C(C)C", "assay": "light transmittance", "test system": "PBS", "setting": "pH 7.4", "quantity": "critical micelle concentration", "value": "333 µM"}
{"Compound": "CCCC[C@H](NC(=O)COCCOCCNC(=O)CN1CCN(CC(=O)O)CCN(CC(=O)O)CC1)C(=O)N[C@H]1CC(=O)NCCCC[C@@H](C(N)=O)NC(=O)[C@H](Cc2c[nH]c3ccccc23)NC(=O)[C@H](CCCNC(=N)N)NC(=O)[C@@H](Cc2ccccc2)NC(=O)[C@H](Cc2c[nH]cn2)NC1=O [copper-64 labelled]", "test system": "C57 mice, blood", "setting": "intravenous, 0.37 MBq, 0.5 h", "quantity": "tissue uptake", "value": "3.48 ± 0.95 %ID/g"}
{"Compound": "N=C(N)NCCC[C@@H]1NC(=O)[C@H](CCCCNC(=O)CNC(=O)CNC(=O)CNC(=O)CC[C@H](NC(=O)CNC(=O)CNC(=O)CNC(=O)CN2CCN(CC(=O)O)CCN(CC(=O)O)CCN(CC(=O)O)CC2)C(=O)NCC(=O)NCC(=O)NCC(=O)NCCCC[C@@H]2NC(=O)[C@@H](Cc3ccccc3)NC(=O)[C@H](CC(=O)O)NC(=O)CNC(=O)[C@H](CCCNC(=N)N)NC2=O)NC(=O)[C@@H](Cc2ccccc2)NC(=O)[C@H](CC(=O)O)NC(=O)CNC1=O [indium-111 labelled]", "test system": "female athymic nu/nu mice, muscle", "setting": "intravenous, 111 kBq, 1 h", "quantity": "tissue uptake", "value": "0.7 ± 0.03 %ID/g"}
{"Compound": "Cc1cc(-c2ccc(NC(=O)[C@H](CCCCNC(=O)CCN3C(=O)CC(SCCC(=O)N[C@H](Cc4ccccc4)C(=O)N[C@H]4CSSC[C@@H](C(=O)N[C@H](C(=O)O)[C@@H](C)O)NC(=O)[C@H]([C@@H](C)O)NC(=O)[C@H](CCCCN)NC(=O)[C@@H](Cc5c[nH]c6ccccc56)NC(=O)[C@H](Cc5ccc(O)cc5)NC4=O)C3=O)NC(=O)CN3CCN(CC(=O)O)CCN(CC(=O)O)CCN(CC(=O)O)CC3)c(C)c2)ccc1N=Nc1ccc2c(S(=O)(=O)O)cc(S(=O)(=O)O)c(N)c2c1O (some centres unmarked) [gallium-68 labelled]", "assay": "micro-PET", "test system": "male BALB/c nude mouse, AR42J xenograft, tumour and muscle", "setting": "intravenous, 7.4 MBq, 4 h", "scale": "baseline: tumour over muscle", "quantity": "tumour-to-tissue uptake ratio", "value": "5.39 ± 0.97"}
{"note": "Repeated from above:"}
{"Compound": "CCCC[C@H](NC(=O)CNC(=O)CNC(=O)CN1CCN(CC(=O)O)CCN(CC(=O)O)CCN(CC(=O)O)CC1)C(=O)N[C@H]1CC(=O)NCCCC[C@@H](C(N)=O)NC(=O)[C@H](Cc2c[nH]c3ccccc23)NC(=O)[C@H](CCCNC(=N)N)NC(=O)[C@@H](Cc2ccccc2)NC(=O)[C@H](Cc2c[nH]cn2)NC1=O [lutetium-177 labelled]", "test system": "C57 mouse, female, spleen", "setting": "intravenous, 0.037 MBq, 0.5 h", "quantity": "tissue uptake", "value": "1.21 ± 0.19 %ID/g"}
